Assay results pooled from the literature.
Each line is one published result; not all experiments were run side by side. ± gives the spread as reported.

Structure (SMILES)	species	matrix	route	dose	time	notes	Tmax [min]
COC(=O)C1=CO[C@@H](O[C@@H]2O[C@H](CO)[C@@H](O)[C@H](O)[C@H]2O)[C@@H]2C(CO)=CC[C@H]12	Sprague-Dawley rat	internal jugular vein plasma	oral	500 mg/kg Eu + 217 mg/kg Pc extract	–	dosed as combined Eu and Pc extracts	30
CSc1ccccc1C(=O)NCCn1cc(C(=O)NCc2cccc(C)n2)c(=O)c2cc3c(cc21)OC(F)(F)O3	Sprague-Dawley rat, male	whole blood	intramuscular	10 mg/kg of parent drug	–	–	125 ± 64.8
Cc1cc(-c2ccc3cc[nH]c(=O)c3c2)ccc1O[C@H]1O[C@H](CO)[C@@H](O)[C@H](O)[C@@H]1O	male Sprague-Dawley rat	plasma	intravenous	3 mg/kg	–	group mean	4.98
OCC1=C[C@@H](O)[C@@H]2C=CO[C@@H](O[C@@H]3O[C@H](CO)[C@@H](O)[C@H](O)[C@H]3O)[C@H]12	Sprague-Dawley rat	internal jugular vein plasma	oral	500 mg/kg Eu + 217 mg/kg Pc extract	–	dosed as combined Eu and Pc extracts	60 ± 52.2
Cc1cccc(CNC(=O)c2cn(CCNC(=O)c3ccccc3S)c3cc4c(cc3c2=O)OC(F)(F)O4)n1	Sprague-Dawley rat, male	plasma	intramuscular	10 mg/kg of parent drug	–	–	560 ± 440
C=CC(=O)N1CCC[C@@H](n2nc(-c3ccc(Oc4ccccc4)cc3)c3c(N)ncnc32)C1	male Wistar rat	stomach	oral	50 mg/kg	–	–	45 ± 34.2
CNC(=O)c1cccc(-c2ccc(O[C@H]3O[C@H](CO)[C@@H](O)[C@H](O)[C@@H]3O)c(C)c2)c1	Sprague-Dawley rat, male	plasma	intravenous	3 mg/kg	–	–	4.98
Cc1cccc(CNC(=O)c2cn(CCNC(=O)c3ccccc3Sc3c([N+](=O)[O-])ncn3C)c3cc4c(cc3c2=O)OC(F)(F)O4)n1	Sprague-Dawley rat, male	whole blood	intramuscular	3 mg/kg of parent drug	–	–	4.98
CCc1cc(C(=O)NC)c2nccc(N3CCc4c(cc(Cn5ccnc5)cc4-c4cn(C)nc4C(F)(F)F)C3=O)c2c1	Sprague Dawley rat, male	plasma	oral	100 mg/kg twice daily	day 1	–	720
CN1CCC[C@H](CN2c3ccccc3Sc3ccccc32)C1.Cl	Wistar rat female	liver	oral	16 mg/kg	–	–	30

Excerpt of the above:
Structure (SMILES)	species	matrix	route	dose	time	notes	Tmax [min]
C=CC(=O)N1CCC[C@@H](n2nc(-c3ccc(Oc4ccccc4)cc3)c3c(N)ncnc32)C1	male Wistar rat	stomach	oral	50 mg/kg	–	–	45 ± 34.2
